Experimental data collected from several papers.
Numbered parts are unrelated; each lists some results of a single study. Substitutions count along the parent as printed.

Set 1
Target: UBE2H UBC core domain (UniProt P62256)
UniProt P62256, sequence (whole entry, looked up): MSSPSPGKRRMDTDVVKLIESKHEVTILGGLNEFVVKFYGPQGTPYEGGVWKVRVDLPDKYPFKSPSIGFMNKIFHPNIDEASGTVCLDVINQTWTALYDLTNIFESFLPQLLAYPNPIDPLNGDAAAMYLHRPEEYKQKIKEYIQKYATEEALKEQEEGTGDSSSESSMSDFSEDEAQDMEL
Technique: yeast two-hybrid
Medium: yeast
Setting: mostly zero background
Relative to: not given
Reading: higher = stronger interaction
Endpoint: lacZ reporter activity
B1: BFAR RING domain (UniProt Q9NZS9); chain GPQISVSEFSCHCCYDILVNPTTLNCGHSFCRHCLALWWASSKKTECPECREKWEGFPKVS
B2: TRIM11 RING domain (UniProt Q96F44); chain LSTNLQEEATCAICLDYFTDPVMTDCGHNFCRECIRRCWGQPEGPYACPECRELSPQRNLRP
B3: RNF182 RING domain (UniProt Q8N6D2); chain AESQASDELECKICYNRYNLKQRKPKVLECCHRVCAKCLYKIIDFGDSPQGVIVCPFCRFETCLPDDEV
B4: RUFY1 RING domain (UniProt Q96T51); chain QALKGHAWLKDDEATHCRQCEKEFSISRRKHHCRNCGHIFCNTCSSNELALPSYPKPVRVCDSCHTLLLQRCSSTAS
B1 (BFAR RING domain): 0
B2 (TRIM11 RING domain): 0
LVKDFNPYITCYICKGYLIKPTTVTECLHTFCKTCIVQHFEDSNDCPRCGNQVHETNPLE (PCGF5 RING domain (UniProt Q86SE9)): 0
B3 (RNF182 RING domain): 0
B4 (RUFY1 RING domain): 0
LEALSSDFLACKICLEQLRAPKTLPCLHTYCQDCLAQLADGGRVRCPECRETVPVPPEGV (TRIM56 RING domain (UniProt Q9BRZ2)): 8240

Set 2
Target: Histone acetyltransferase KAT6A, winged helix 1, GST fusion (KAT6A, Homo sapiens, UniProt Q92794, residues 1-85)
Technique: protein binding microarray
Molecule type: double-stranded DNA, one strand shown
Medium: in vitro
Tested at: not given
Setting: 8-mer, flanks averaged, mean of 2 arrays, mostly near background
Relative to: not given
Reading: higher = stronger binding
Endpoint: E-score
Construct (chain): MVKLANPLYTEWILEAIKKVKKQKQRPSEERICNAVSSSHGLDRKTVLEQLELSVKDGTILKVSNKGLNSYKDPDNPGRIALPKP
CTGACATC: -0.107
GATTTGGC: -0.18
AGGAGCCT: -0.107
CATGGGAG: -0.17
TAGTCCAA: -0.082
TCGGATAA: 0.0254
AATGATTA: -0.19
CGTACAAA: 0.0971
AAATGCGT: 0.163
AAACAGAA: -0.233
GGGATCTA: -0.118
CACGACCA: -0.18
ATTACGTG: -0.0257
TCGACAAA: -0.0446
CGGCCTAG: 0.15
CGACTCTC: -0.102
GCTAGAAC: 0.0513
CACACCTC: -0.0354
CTTTCCAA: -0.169
AAACGCCC: 0.202

Set 3
Target: RNA binding protein fox-1 homolog 2, RRM domain, GST-SBP tag (RBFOX2, Homo sapiens, UniProt O43251-10, residues 100-194)
Technique: RNA Bind-n-Seq
Molecule type: RNA
Medium: in vitro
Tested at: 365 nM
Setting: natural RNA segment, single round, ends assumed
Relative to: no-protein control
Reading: higher = stronger binding
Endpoint: RBNS enrichment (R)
All sequences stand within: GGGAGUUCUACAGUCCGACGAUC … UGGAAUUCUCGGGUGCCAA
Target sequence (chain): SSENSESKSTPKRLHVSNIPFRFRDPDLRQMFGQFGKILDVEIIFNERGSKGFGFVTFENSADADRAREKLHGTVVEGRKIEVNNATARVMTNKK
CCCCACCUGCCAAAUGGGGAUAAAUAAUCUUACCUACCUCCUGGGGGGAGGGGAAGUUCUGAGAAUGGAGUCAUUCUUAGUGUUCAGGUGCUAAAGGUUGUUCUCCUGGG: 0.568
AUUUCUAUAAUCUAUUAAAAAAAAUGGAGAAUGUUUUCUCUCAAAUUUCCUCUGACCCAUGGGAAUGAAAAUACUUAAAUACUGUAAAGCAUAUCUAUUAAUAAUUCCCC: 0.39
GGCAACCAGCUGAUUCUGUACAGGGUACACUUGACUGUGGGUAUGCAGGUGGCAGCUGCAGCCCUCCUGUGCUUGUGUACGCAUGACUGCAUGGACCAGCACCACUGCCU: 6.45
UAGAAAUACCUUUCCUGUAGCUUUUAUAGUCAUUGUUUUUCAAAGACGAUAUACCAGCCCUCACCCAGGUUUUAAAAAAGCACUGGUAGGCAUAGAAUAGGUGCUCAGUA: 0.285
UGAAGGAUGCCCAUCUCCACCAGGACAGACUAGCAAAGGCAGUCUGGACACCAUGCUGGGCCUGCUGCAGUCUGACCUCAGCCGUCGUGGUGUCCCCACACAGGCCAAAG: 0.243
UUUUUUAAUUGAUGGGAUACUAACCUUAAAUUCUAGCGUUGGUGCUUUGCACCAAGAGAAAGCUUUCCAAAAUUAACCUUCACAGCAGCGUUGUAAGUAACUGAGGUCCA: 0.551
CAUUCCUGCAUUCUGCCAUAGGAAUCACAACUUCCCACAUCAGGCCAUGCUUGCCUAAGACCUCGUUCUGUUCUCCCAUAAGGCCGUCCUUCCCACAGUACCUUAAGAUU: 0.65
UGACAAGAUUUUCUUGGAUUUUUUUUUUAUACGAAAAUCAAAAUUUCAAUCAGUCUCGUGCUCUGUCCCUUUACAUCGGUAUGCGACUAUUACAAUCACUGUGUGUGUGU: 0.24
UUUUUAUAAUAUUAUCUAUGGGAUGUCAGCACAAUAUAACACUCUGGGAAGAAGUGGAGUUUUUUGGUUAUUAGGUUAAUUUUCUAGUAAAACACGUUGCCUGUUUUCAG: 0.813
CACAAUGAAUUUUACUUGAAUAUUGUAUGUUGCAUUCCACUUCAUUUGAAAAUAAUGAAACCAUGUACCACUGUUUACAUCAUCUGUAGUGAUUUCAUAGAUAAUAUAUU: 0.512
AAUGCAAAAACAGAUUAGUAUGUGUUCAGGUGAACUUUUACUUAAAACAUUAAACUUUGGCUCUCCUAAAUUGUUCAGGUCACAAAAACUCUUCAUUCAUUUUUAACUUU: 0.606
CACGAUGCUGCUCUGGUGAUUCUUGUACCUAAUCUGGUGUGCUCACCAAUGAGUGAAAGGGAUCGUGGGUCAGGGACACCGAGAGAGUGAGGUCACUUCCACUUCAAACC: 0.224

Set 4
Target: Sal-like protein 4, full length isoform B (SALL4, Homo sapiens, UniProt Q9UJQ4-2, residues 1-616)
Technique: universal PBM
Molecule type: double-stranded DNA, one strand shown
Medium: in vitro
Tested at: not given
Setting: 8-mer, flanks averaged, mean of replicates
Reading: higher = stronger binding
Endpoint: E-score
Target sequence (chain): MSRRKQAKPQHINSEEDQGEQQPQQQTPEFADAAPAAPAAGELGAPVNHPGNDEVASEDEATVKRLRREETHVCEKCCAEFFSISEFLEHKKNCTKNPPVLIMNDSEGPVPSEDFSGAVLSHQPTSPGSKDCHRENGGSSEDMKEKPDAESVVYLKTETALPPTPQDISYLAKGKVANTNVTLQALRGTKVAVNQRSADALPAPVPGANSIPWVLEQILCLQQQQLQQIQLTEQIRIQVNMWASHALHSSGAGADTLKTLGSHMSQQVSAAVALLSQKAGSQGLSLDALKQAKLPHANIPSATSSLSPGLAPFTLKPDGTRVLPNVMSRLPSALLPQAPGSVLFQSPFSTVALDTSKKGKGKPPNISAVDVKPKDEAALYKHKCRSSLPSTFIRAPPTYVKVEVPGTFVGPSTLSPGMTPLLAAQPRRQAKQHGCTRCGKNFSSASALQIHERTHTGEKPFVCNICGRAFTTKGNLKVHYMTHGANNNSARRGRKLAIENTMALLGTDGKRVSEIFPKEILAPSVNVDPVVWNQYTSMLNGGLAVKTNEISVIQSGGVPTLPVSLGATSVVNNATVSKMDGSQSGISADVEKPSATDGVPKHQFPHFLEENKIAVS
ACGTTGCG: -0.0881
TAATAAGA: 0.348
AGCGCCAG: -0.202
CACGTGGC: -0.225
GTTGCGAA: -0.0609
CTAAGTCA: 0.0966
CACCTCCA: 0.0147
CCATCAAG: -0.0845
ATTTAGGA: 0.204
AGCGGCGC: -0.29
GATGAAAA: 0.183
CGACTTCA: -0.121
TTAGTAAA: 0.212

Set 5
Target: ABI1, truncated, D143A, DHFR fusion (Arabidopsis thaliana)
Technique: DHFR PCA, deep sequencing
Medium: yeast
Setting: methotrexate growth selection, single substitutions
With: (+)-ABA 17 µM
Relative to: wild-type fitted maximum
Reading: higher = stronger binding
Endpoint: relative binding score
Starting sequence: PYL1, truncated, DHFR fusion (Arabidopsis thaliana); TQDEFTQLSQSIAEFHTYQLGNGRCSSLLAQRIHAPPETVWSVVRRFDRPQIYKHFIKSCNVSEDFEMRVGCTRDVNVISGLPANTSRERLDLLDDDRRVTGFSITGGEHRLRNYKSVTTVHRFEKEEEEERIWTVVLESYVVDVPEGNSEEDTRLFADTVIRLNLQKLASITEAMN
L164D: 11.4%
H34W: 66.1%
A35E: 12.2%
K126R: 93.6%
R69G: 76.9%
N77D: 79.8%
D48F: 12%
D3A: 79.8%
T6P: 92.9%
E152Y: 71.2%
I79N: 53.5%

Set 6
Target: Interferon regulatory factor 5, full length, phosphomimetic (IRF5, Homo sapiens, UniProt Q13568-2, residues 1-514, K96S/S451D/S453D/S456D/S462D)
Technique: protein-binding microarray
Molecule type: double-stranded DNA, one strand shown
Medium: in vitro
Tested at: 250 nM
Setting: 60-bp whole probe
With: salmon DNA 0.4 mg/ml
Relative to: random background probes
Reading: higher = stronger binding
Endpoint: log fluorescence
All sequences stand within: GCCTAGCAC … GTCTTGATTCGCTTGACGCTGCTG
TTTGGACTGGGTCTCGGTTAGTGCTAG: 0.0189 z-score
TATCTTATCCTATCAGTTTAGTGCTAG: 1.92 z-score
TTAGAACTGCGGACTGGATTAGTGCTA: -0.615 z-score
TTTTTTTTTTTTTCTGATCCGTGCTAG: 1.7 z-score
TCAAAAAAAAAAAACTGTACTGTGCTA: 0.829 z-score
TCAGGTCTCCTTCTCCTTTAGTGCTAG: -0.0164 z-score
TTAGGACTGATACTGCTTTAGTGCTAG: 0.311 z-score
GACGGACTGGGGCCTGGGGACGTGCTA: -0.859 z-score
TCACCAATCAGGACTCAGACTGTGCTA: 0.0718 z-score
CTACGTCTGATTTTGCTTTCGTGCTAG: 2.41 z-score
ATATATATCATTTAATTATAGTGCTAG: 1.71 z-score
GACGATCTCAGTATCGAGAAGTGCTAG: 1.69 z-score
TCCTGTGACGTTAAGGTCTCGTGCTAG: -0.487 z-score
TTAGGTCTCCTATTCCTTTAGTGCTAG: -0.138 z-score
TCCATTTCTGTTTTTGCTTTGTGCTAG: 3.23 z-score
GACAGTTTCCTTATCCTGACGTGCTAG: 1.51 z-score
TTAGGGCTGGGGTTTCGGTTAGTGCTA: 5.86 z-score

Repeated from above (set 3):
UUUUUUAAUUGAUGGGAUACUAACCUUAAAUUCUAGCGUUGGUGCUUUGCACCAAGAGAAAGCUUUCCAAAAUUAACCUUCACAGCAGCGUUGUAAGUAACUGAGGUCCA: 0.551
CAUUCCUGCAUUCUGCCAUAGGAAUCACAACUUCCCACAUCAGGCCAUGCUUGCCUAAGACCUCGUUCUGUUCUCCCAUAAGGCCGUCCUUCCCACAGUACCUUAAGAUU: 0.65
UGACAAGAUUUUCUUGGAUUUUUUUUUUAUACGAAAAUCAAAAUUUCAAUCAGUCUCGUGCUCUGUCCCUUUACAUCGGUAUGCGACUAUUACAAUCACUGUGUGUGUGU: 0.24
UUUUUAUAAUAUUAUCUAUGGGAUGUCAGCACAAUAUAACACUCUGGGAAGAAGUGGAGUUUUUUGGUUAUUAGGUUAAUUUUCUAGUAAAACACGUUGCCUGUUUUCAG: 0.813
CACAAUGAAUUUUACUUGAAUAUUGUAUGUUGCAUUCCACUUCAUUUGAAAAUAAUGAAACCAUGUACCACUGUUUACAUCAUCUGUAGUGAUUUCAUAGAUAAUAUAUU: 0.512
AAUGCAAAAACAGAUUAGUAUGUGUUCAGGUGAACUUUUACUUAAAACAUUAAACUUUGGCUCUCCUAAAUUGUUCAGGUCACAAAAACUCUUCAUUCAUUUUUAACUUU: 0.606
CACGAUGCUGCUCUGGUGAUUCUUGUACCUAAUCUGGUGUGCUCACCAAUGAGUGAAAGGGAUCGUGGGUCAGGGACACCGAGAGAGUGAGGUCACUUCCACUUCAAACC: 0.224
